{"data": "Measured values pooled from the literature", "note": "Protocols differ between the studies behind these lines. “And” joins repeats or separate records; there may be more than shown. Numbers after ± are the reported error.", "UniProt Q9UM73, sequence (whole entry, unmodified, looked up)": "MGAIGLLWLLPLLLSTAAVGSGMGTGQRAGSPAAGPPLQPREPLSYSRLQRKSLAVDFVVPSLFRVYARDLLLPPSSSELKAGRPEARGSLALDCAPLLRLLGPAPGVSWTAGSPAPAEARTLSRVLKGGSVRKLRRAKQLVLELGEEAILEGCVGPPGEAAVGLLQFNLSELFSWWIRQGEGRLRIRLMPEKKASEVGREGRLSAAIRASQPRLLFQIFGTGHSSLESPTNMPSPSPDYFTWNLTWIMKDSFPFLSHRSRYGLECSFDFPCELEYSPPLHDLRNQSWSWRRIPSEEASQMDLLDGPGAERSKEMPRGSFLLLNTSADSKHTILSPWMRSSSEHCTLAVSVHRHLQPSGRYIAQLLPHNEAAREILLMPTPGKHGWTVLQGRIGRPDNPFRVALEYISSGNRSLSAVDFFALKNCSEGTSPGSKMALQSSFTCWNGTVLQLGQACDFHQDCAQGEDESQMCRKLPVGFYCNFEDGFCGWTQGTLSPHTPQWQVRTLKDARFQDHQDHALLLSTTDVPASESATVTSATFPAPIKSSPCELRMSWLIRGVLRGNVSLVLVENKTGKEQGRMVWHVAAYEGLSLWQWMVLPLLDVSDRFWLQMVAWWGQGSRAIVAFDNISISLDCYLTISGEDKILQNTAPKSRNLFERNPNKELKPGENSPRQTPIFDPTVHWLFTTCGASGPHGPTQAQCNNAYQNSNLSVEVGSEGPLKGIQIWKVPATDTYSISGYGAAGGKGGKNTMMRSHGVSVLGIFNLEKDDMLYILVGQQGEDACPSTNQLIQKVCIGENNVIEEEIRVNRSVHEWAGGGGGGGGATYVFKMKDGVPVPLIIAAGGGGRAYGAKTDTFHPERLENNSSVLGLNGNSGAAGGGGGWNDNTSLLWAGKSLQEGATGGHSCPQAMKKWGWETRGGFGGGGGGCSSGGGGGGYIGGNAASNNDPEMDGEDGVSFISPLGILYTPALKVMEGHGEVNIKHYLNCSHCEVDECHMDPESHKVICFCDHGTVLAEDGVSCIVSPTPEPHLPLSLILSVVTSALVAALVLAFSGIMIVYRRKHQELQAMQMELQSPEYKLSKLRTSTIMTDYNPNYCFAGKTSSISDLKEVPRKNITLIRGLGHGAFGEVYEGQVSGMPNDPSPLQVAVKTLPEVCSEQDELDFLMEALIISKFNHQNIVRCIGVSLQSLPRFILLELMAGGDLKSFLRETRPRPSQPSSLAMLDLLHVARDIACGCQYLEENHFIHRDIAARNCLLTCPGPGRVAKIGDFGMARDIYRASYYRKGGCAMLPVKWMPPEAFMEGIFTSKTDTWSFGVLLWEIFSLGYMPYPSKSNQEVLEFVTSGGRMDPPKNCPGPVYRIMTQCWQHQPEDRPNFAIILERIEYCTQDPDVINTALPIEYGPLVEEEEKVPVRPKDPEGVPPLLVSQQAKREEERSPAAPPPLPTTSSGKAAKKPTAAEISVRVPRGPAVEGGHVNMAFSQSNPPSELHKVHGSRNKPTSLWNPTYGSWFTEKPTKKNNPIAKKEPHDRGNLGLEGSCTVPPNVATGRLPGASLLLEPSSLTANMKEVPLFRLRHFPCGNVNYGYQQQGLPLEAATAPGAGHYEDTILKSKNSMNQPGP"}
{"SMILES": "C=C1CC[C@H](OCCCNC(=O)CCOCCOCCOCCOCCOCCOCCOCCOCCOCCOCCOCCOCCOCCOCCOCCOCCOCCOCCOCCOCCOCCOCCOCCOCCOCCOCCOCCOCCOCCOCCOCCOCCOCCOCCOCCOCCNC(=O)CCN2C(=O)CC(SC[C@H](NC(=O)[C@H](Cc3ccccc3)NC(=O)[C@H](CC(N)=O)NC(=O)[C@H](Cc3c[nH]cn3)NC(=O)[C@@H](NC(=O)[C@H](CC(=O)O)NC(=O)[C@H](CCC(N)=O)NC(=O)[C@H](CC(C)C)NC(=O)[C@H](CCCCN)NC(=O)[C@H](CCCCN)NC(=O)[C@H](CCCNC(=N)N)NC(=O)[C@H](CC(C)C)NC(=O)[C@H](Cc3c[nH]c4ccccc34)NC(=O)[C@H](CCC(=O)O)NC(=O)[C@@H](NC(=O)[C@H](CCCNC(=N)N)NC(=O)[C@H](CCC(=O)O)NC(=O)[C@H](CCSC)NC(=O)[C@H](CO)NC(=O)[C@H](CC(N)=O)NC(=O)[C@H](CC(C)C)NC(=O)[C@H](Cc3c[nH]cn3)NC(=O)[C@H](CCCCN)NC(=O)CNC(=O)[C@H](CC(C)C)NC(=O)[C@H](CC(N)=O)NC(=O)[C@H](Cc3c[nH]cn3)NC(=O)[C@H](CCSC)NC(=O)[C@H](CC(C)C)NC(=O)[C@H](CCC(N)=O)NC(=O)[C@@H](NC(=O)[C@H](CCC(=O)O)NC(=O)[C@H](CO)NC(=O)[C@@H](NC(=O)[C@@H](N)CO)C(C)C)[C@@H](C)CC)C(C)C)C(C)C)C(=O)O)C2=O)C/C1=C/C=C1\\CCC[C@]2(C)[C@@H]([C@H](C)CCCC(C)(C)O)CC[C@@H]12 (stereo partly shown)", "test system": "rat, plasma", "conditions": "subcutaneous, 300 µg/kg, single dose", "endpoint": "MRT", "result": "13.6 h"}
{"SMILES": "COC(=O)Nc1nc2cc(C(O)c3ccc(F)cc3)ccc2[nH]1 (stereo not shown)", "target or system": "Salmonella typhimurium", "assay": "Ames preincubation test", "test system": "TA1537", "conditions": "218.8 µg/plate, without S9", "endpoint": "revertants", "result": "15.3 revertants/plate"}
{"SMILES": "N#CCNC(=O)c1ccc(C2CCCCC2)cc1", "assay": "liver microsome stability", "test system": "dog liver microsomes", "conditions": "1 µM", "endpoint": "hepatic clearance", "result": "1.74 L/h/kg"}
{"SMILES": "Cc1nn(-c2cccc(N)c2)c(=O)c2cnc(Nc3ccc(N4CCNCC4)cc3)nc12", "target or system": "Tyrosine-protein kinase ABL1 (ABL1, Homo sapiens, UniProt P00519, Y253F)", "assay": "enzyme activity, inhibitor", "endpoint": "IC50", "result": "0.561 µM"}
{"SMILES": "CC(C)C[C@H](NC(=O)[C@@H](CCCCNC(=O)[C@@H](Cc1ccccc1)NC(=O)CCCCCNC(=O)CN1CCN(CC(=O)O)CCN(CC(=O)O)CCN(CC(=O)O)CC1)NC(=O)[C@H](Cc1ccc(O)cc1)NC(=O)[C@H](CO)NC(=O)[C@H](Cc1c[nH]c2ccccc12)NC(=O)[C@H](Cc1c[nH]cn1)NC(=O)[C@@H]1CCC(=O)N1)C(=O)N[C@@H](CCCNC(=N)N)C(=O)N1CCC[C@H]1C(=O)NCC(N)=O [indium-111 labelled]", "test system": "female athymic nude mice, bone", "conditions": "intravenous, 0.037 MBq, 0.5 h", "endpoint": "tissue uptake", "result": "0.32 ± 0.17 %ID/g"}
{"SMILES": "Cc1cc(=O)c2c(O)c3c(O[C@@H]4O[C@H](CO)[C@@H](O)[C@H](O)[C@H]4O)cc(O)cc3cc2o1", "target or system": "HepaRG co-cultured with HK-2", "assay": "MTT", "conditions": "266.67 µM, 24 h", "scale": "relative to: untreated control", "endpoint": "cell viability", "result": "87.2 ± 9.67%"}
{"SMILES": "O=C(NCCO)c1ccc([C@H]2[C@@H](F)[C@@H](F)C[C@@H](F)[C@H]2F)cc1", "assay": "liver microsome stability", "test system": "cynomolgus liver microsomes", "conditions": "1 µM", "endpoint": "hepatic clearance", "result": "0.396 L/h/kg"}
{"SMILES": "O=C1C2CC3CC1CC(C(=O)N1CCN(c4ccc([N+](=O)[O-])c5ncccc45)CC1)(C3)C2", "target or system": "Escherichia coli", "assay": "Ames test", "test system": "WP2 uvrA pKM101", "conditions": "0.02 µg/well, without S9", "scale": "relative to: vehicle", "endpoint": "revertant fold increase", "result": 1.3}
{"SMILES": "CCN(CC)CC#CCNc1ccnc2cc(Cl)ccc12", "target or system": "Salmonella typhimurium", "assay": "mini-Ames test", "test system": "TA102", "conditions": "62.5 µg/well, without S9", "endpoint": "revertants", "result": "74 revertants/well"}
{"SMILES": "F[C@@H]1[C@H](c2ccc(-c3cnc(N4CCOCC4)nc3)cc2)[C@H](F)[C@H](F)C[C@@H]1F", "assay": "liver microsome stability", "test system": "mouse liver microsomes", "conditions": "1 µM", "endpoint": "hepatic clearance", "result": "2.94 L/h/kg"}
{"SMILES": "C=C(NC(=O)c1csc(-c2nc3c(cc2O)-c2nc(cs2)C(=O)NC(C(C)O)C(=O)NC(=C(C)OC)c2nc(cs2)C(=O)NC2c4nc(cs4)C(=O)NC(COC(=O)c4c5c6c(cccc6n4O)COC(=O)C(OC4CC(C)(O)C(N(C)C)C(C)O4)C2OC5)c2nc-3cs2)n1)C(N)=O (stereo not shown)", "test system": "Sprague-Dawley rat, female, plasma", "conditions": "intravenous infusion, 2 mg/kg single dose", "endpoint": "volume of distribution", "result": "6.2 L/kg"}
{"SMILES": "CC(C)C[C@H](NC(=O)[C@H](Cc1ccc(O)cc1)NC(=O)[C@@H](CCCNC(=N)N)NC(=O)[C@@H](CO)NC(=O)[C@H](Cc1ccccc1)NC(=O)[C@H](CC1CCCCC1)NC(=O)[C@H](CC(=O)O)NC(=O)CN1CCN(CC(=O)O)CCN(CC(=O)O)CCN(CC(=O)O)CC1)C(=O)N[C@@H](Cc1c[nH]c2ccccc12)C(=O)N[C@@H](CO)C(=O)O [copper-64 labelled]", "test system": "human, lung", "conditions": "concentration not given, 1 h", "endpoint": "activity concentration", "result": "980 Bq/mL and 588 Bq/mL and 706 Bq/mL and 1370 Bq/mL and 1480 Bq/mL and 1450 Bq/mL"}
{"SMILES": "c1cc(C2CCCCC2)ccc1-c1ccc(N2CCCC2)nc1", "assay": "hepatocyte stability", "test system": "cryopreserved rat hepatocytes", "conditions": "1 µM", "endpoint": "hepatic clearance", "result": "1.2 L/h/kg"}
{"SMILES": "N#C[C@@H]1CC(F)(F)CN1C(=O)CNC(=O)c1ccnc2c(NC(=O)[C@@H](N)CCCCNC(=O)CCOCCOCCOCCOCCOCCOCCNC(=O)CN3CCN(CC(=O)[O-])CCN(CC(=O)[O-])CCN(CC(=O)[O-])CC3)cccc12.[177Lu+3]", "target or system": "U-87 MG tumour model", "test system": "host not given, pancreas", "conditions": "4 h, tumour-bearing", "endpoint": "tracer uptake", "result": "0.16 %ID/g"}
{"SMILES": "COC1CN([C@H]2CC[C@H]([C@@]3(C)Oc4c(Cl)cc(C(=O)NCc5c(SC)cc(C)[nH]c5=O)c(C)c4O3)CC2)C1", "assay": "RNA-seq, measured: HOMER1", "test system": "human, whole blood", "conditions": "dose not given, 24 h", "scale": "relative to: pretreatment baseline", "endpoint": "log2 fold change", "result": 1.37}
{"SMILES": "CCn1nc(Cl)c2c1-c1cnc(N)c(c1)O[C@H](C)c1cc(F)ccc1-c1nn(C)cc1C2", "target or system": "ALK tyrosine kinase receptor (ALK, Homo sapiens, UniProt Q9UM73, S1206R)", "assay": "enzyme activity, inhibitor", "conditions": "together with: 1 mM ATP", "endpoint": "IC50", "result": "0.0018 µM"}
{"SMILES": "CNC(=O)C1CCCN(C(=O)C2CC3CCC2N3C(=O)[C@@H]2C[C@@H](O)CN2C(=O)NCc2cccc(Cl)c2F)C1 (mixture of isomers)", "target or system": "Cytochrome P450 2C19 (CYP2C19, Homo sapiens, UniProt P33261)", "assay": "enzyme activity, inhibitor, time-dependent inhibition", "conditions": "16.7 µM, preincubated with NADPH", "scale": "relative to: negative control", "endpoint": "remaining activity", "result": "104%"}
{"SMILES": "CCCC[C@H](NC(=O)CCCCCCCNC(=O)CN1CCN(CC(=O)O)CCN(CC(=O)O)CC1)C(=O)N[C@H]1CC(=O)NCCCC[C@@H](C(N)=O)NC(=O)[C@H](Cc2c[nH]c3ccccc23)NC(=O)[C@H](CCCNC(=N)N)NC(=O)[C@@H](Cc2ccccc2)NC(=O)[C@H](Cc2c[nH]cn2)NC1=O [technetium-99m labelled]", "test system": "C57 mouse, lung", "conditions": "intravenous, 0.037 MBq, 0.5 h", "endpoint": "tissue uptake", "result": "2.26 ± 1 %ID/g"}
{"SMILES": "N#C[C@@H]1CC(F)(F)CN1C(=O)CNC(=O)c1ccnc2c(NC(=O)CCOCCOCCOCCOCCOCCOCCNC(=O)[C@H](CCCCNC(=O)CN3CCN(CC(=O)[O-])CCN(CC(=O)[O-])CCN(CC(=O)[O-])CC3)NC(=O)CCCc3ccc(I)cc3)cccc12.[177Lu+3]", "target or system": "U-87 MG tumour model", "test system": "host not given, tumour", "conditions": "1 h, tumour-bearing", "endpoint": "tracer uptake", "result": "11.3 %ID/g"}
{"SMILES": "CC(C)C[C@@H]1NC(=O)[C@H](CO)NC(=O)[C@H](CC(=O)O)NC(=O)[C@@H]2CCCN2C(=O)[C@H]2CCCN2C(=O)[C@H](C(C)C)NC(=O)[C@H](CC(=O)O)NC(=O)[C@H](CC(N)=O)NC(=O)[C@H](CCCNC(=N)N)NC(=O)[C@H]([C@@H](C)O)NC(=O)[C@H](C(C)C)NC(=O)CCNC(=O)CCNC(=O)[C@H](Cc2ccccc2)NC(=O)[C@H](C(C)C)NC(=O)[C@H](CC(C)C)NC1=O", "target or system": "HEK-293T", "assay": "subcellular fractionation LC-MS", "test system": "nuclear fraction", "conditions": "20 µM, 2 h", "endpoint": "peptide amount", "result": "not detected"}
{"SMILES": "CNC(=O)c1ccc([C@H]2[C@@H](F)[C@@H](F)C[C@@H](F)[C@H]2F)cc1", "assay": "liver microsome stability", "test system": "dog liver microsomes", "conditions": "1 µM", "endpoint": "hepatic clearance", "result": "0.72 L/h/kg"}
{"SMILES": "N#C[C@@H]1CC(F)(F)CN1C(=O)CNC(=O)c1ccnc2c(NC(=O)[C@H](CCCCNC(=O)CCOCCOCCOCCOCCOCCOCCNC(=O)CN3CCN(CC(=O)[O-])CCN(CC(=O)[O-])CCN(CC(=O)[O-])CC3)NC(=O)CCCc3ccc(I)cc3)cccc12.[177Lu+3]", "target or system": "U-87 MG tumour model", "test system": "host not given, heart", "conditions": "72 h, tumour-bearing", "endpoint": "tracer uptake", "result": "0.23 %ID/g"}
{"note": "Repeated from above:"}
{"SMILES": "Cc1cc(=O)c2c(O)c3c(O[C@@H]4O[C@H](CO)[C@@H](O)[C@H](O)[C@H]4O)cc(O)cc3cc2o1", "target or system": "HepaRG co-cultured with HK-2", "assay": "MTT", "conditions": "266.67 µM, 24 h", "scale": "relative to: untreated control", "endpoint": "cell viability", "result": "87.2 ± 9.67%"}
{"SMILES": "O=C(NCCO)c1ccc([C@H]2[C@@H](F)[C@@H](F)C[C@@H](F)[C@H]2F)cc1", "assay": "liver microsome stability", "test system": "cynomolgus liver microsomes", "conditions": "1 µM", "endpoint": "hepatic clearance", "result": "0.396 L/h/kg"}
{"SMILES": "O=C1C2CC3CC1CC(C(=O)N1CCN(c4ccc([N+](=O)[O-])c5ncccc45)CC1)(C3)C2", "target or system": "Escherichia coli", "assay": "Ames test", "test system": "WP2 uvrA pKM101", "conditions": "0.02 µg/well, without S9", "scale": "relative to: vehicle", "endpoint": "revertant fold increase", "result": 1.3}
{"SMILES": "CCN(CC)CC#CCNc1ccnc2cc(Cl)ccc12", "target or system": "Salmonella typhimurium", "assay": "mini-Ames test", "test system": "TA102", "conditions": "62.5 µg/well, without S9", "endpoint": "revertants", "result": "74 revertants/well"}
